Results collected from several papers.
Each line is one published result; not all experiments were run side by side. Values joined by “and” are separate records of one study, mostly repeats; a detail may differ.
Target: High affinity nerve growth factor receptor (NTRK1, Homo sapiens, UniProt P04629)

Structure (SMILES)	test	conditions	inhibition
C[C@H]1CN(C(=O)c2cn(-c3ccnc(N)n3)c3cc(C#CC4(O)CCCCC4)ccc23)CCN1	enzyme activity, inhibitor, FRET	1 µM	2%
CN1CC[C@@H](COc2cnc(C#N)cc2-c2ccn3nc(NC(=O)C4CC4)cc3c2)C1	enzyme activity, inhibitor	1 µM	7%
NC(=O)[C@@H](O)C[C@H]1CCc2sc3ncnc(O[C@H]4CC[C@H](N5CCOCC5)CC4)c3c21	enzyme activity, inhibitor	10 µM	25%
COc1ccc(S(=O)(=O)N2CCc3ccccc3C2)cc1N1CCN(C(=O)c2ccc(F)cc2C(F)(F)F)CC1	cell-free assay	1 µM	-4.1%
C=CC(=O)Nc1cccc(-c2cnc3[nH]cc(C(=O)NC(C)(C)C)c3n2)c1	kinase activity	0.1 µM	8% and 7%
CN1CCN(Cc2ccc(-c3ccc(CO[C@H]4CCC[C@@H]4NC(=O)c4cc(-c5cnn(C)c5)cnc4N)cc3)cc2)CC1	enzyme activity, inhibitor	0.1 µM	32%
O=C(Nc1ccc(C(=O)Nc2ccc3[nH]ncc3c2)cc1F)Nc1cc(C(F)(F)F)ccc1F	enzyme activity, inhibitor, FRET	1 µM	56.6%
NC(=O)C[C@H]1CCc2sc3ncnc(O[C@H]4CC[C@H](N5CCOCC5)CC4)c3c21	enzyme activity, inhibitor	10 µM	2%
O=C(Nc1ccc(C(=O)Nc2ccc3[nH]ncc3c2)c(Br)c1)Nc1cc(C(F)(F)F)ccc1F	enzyme activity, inhibitor, FRET	1 µM	80.7%
O=C(Nc1ccc(Oc2ncnc3[nH]cc(-c4ccccc4)c23)c(F)c1)c1c2n(n(-c3cc(F)ccc3F)c1=O)CCCC2	enzyme activity, inhibitor	0.5 µM	22%
COc1cc(NC(=O)Nc2cc(C(F)(F)F)ccc2F)ccc1C(=O)Nc1ccc2[nH]ncc2c1	enzyme activity, inhibitor, FRET	1 µM	41.2%
CCn1cc(C(=O)O)c(=O)c2c(N)c(F)c(NC3CCCCC3)cc21	kinase activity	0.1 µM, with: ATP at Km	-13.2%
O=C(Nc1cc(C(F)(F)F)ccc1F)Nc1ccc(C(=O)Nc2ccc3[nH]ncc3c2)cc1C(F)(F)F	enzyme activity, inhibitor, FRET	1 µM	62.2%
Cc1cccc(O[C@H]2CCC[C@@H](C(C)CNCc3ccncc3)C2)c1 (relative stereo)	cell-free assay	1 µM	-1%
C=CC(=O)N1Cc2nc(-c3cc(-c4cc(Cl)cnc4Cl)c(F)cc3F)n(-c3ccncn3)c2C1	cell-free assay	1 µM	-4.1%
O=C(Nc1ccc(C(=O)Nc2ccc3[nH]ncc3c2)c(Cl)c1)Nc1cc(C(F)(F)F)ccc1F	enzyme activity, inhibitor, FRET	1 µM	81.7%

Repeated from above:
Structure (SMILES)	test	conditions	inhibition
O=C(Nc1ccc(C(=O)Nc2ccc3[nH]ncc3c2)c(Br)c1)Nc1cc(C(F)(F)F)ccc1F	enzyme activity, inhibitor, FRET	1 µM	80.7%
